{"data": "Experimental data from different studies", "note": "A part holds a random share of what one study measured. Values joined by “and” are separate records of one study, mostly repeats; a detail may differ."}
{"data": "Block 1", "target": "Ras GTPase-activating protein-binding protein 1, RRM domain (G3BP1, Homo sapiens, UniProt Q13283)", "technique": "RNA Bind-n-Seq", "form": "RNA", "sample": "in vitro", "concentration": "1 µM", "notes": "whole 134-nt RNA, ends assumed", "added": "150 mM KCl", "reference": "input library", "direction": "higher = stronger binding", "shared flanks, not repeated": "GGGAGUUCUACAGUCCGACGAUC … UGGAAUUCUCGGGUGUCAAGG", "UniProt Q13283, sequence (whole entry, looked up)": "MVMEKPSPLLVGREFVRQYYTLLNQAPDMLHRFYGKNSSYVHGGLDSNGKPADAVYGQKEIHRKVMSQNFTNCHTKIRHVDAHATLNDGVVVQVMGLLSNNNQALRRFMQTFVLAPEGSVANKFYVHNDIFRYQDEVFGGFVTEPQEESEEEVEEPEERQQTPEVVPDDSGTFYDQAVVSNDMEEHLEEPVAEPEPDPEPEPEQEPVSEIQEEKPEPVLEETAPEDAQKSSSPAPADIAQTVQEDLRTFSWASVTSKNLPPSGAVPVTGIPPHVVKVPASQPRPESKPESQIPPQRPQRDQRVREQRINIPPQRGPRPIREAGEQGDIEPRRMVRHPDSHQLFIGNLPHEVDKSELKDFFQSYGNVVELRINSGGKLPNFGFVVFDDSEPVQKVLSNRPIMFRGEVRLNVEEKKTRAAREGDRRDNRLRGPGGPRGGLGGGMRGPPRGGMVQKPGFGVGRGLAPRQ"}
{"Strand": "UAACUUUAGAGGAGGAUCUGAUGGAUAUGGCAGUGGACGUGUAUUUGGGGAUGGCUAUAAUGGGUAUGGAGGAGGACCUGGAGGUGGCAA", "log2 enrichment": -0.592}
{"Strand": "CUCAAGUCCUGUGCUACACAUCGUAUGUACCGAAUCGGAAAAAAAGGUGGUGGAAAGUAUUAUGUUACGCCGUUCGGAUCUGCACUUCCA", "log2 enrichment": -0.221}
{"Strand": "UGUUUAUCCAACAUAUGAUUUUGCCUGCCCCAUAGUUGACAGCAUCGAAGGUGUUACACAUGCCCUGAGAACAACAGAAUACCAUGACAG", "log2 enrichment": -0.108}
{"Strand": "UGGCCCUGGUGGCAUGCGGGGAGGAAGAGGUGGCCUCAUGGAUCGUGGUGGUCCCGGUGGAAUGGUCAGAGGUGGCCGUGGUGGAGACAG", "log2 enrichment": 1.96}
{"Strand": "UCAAGUCCUGUGCUACACAUCGUAUGUACCGAAUCGGGAGGGUUUGGGUUUGGGAAAGUAUUAUGUUACGCCGUUCGGAUCUGCACUUCC", "log2 enrichment": 0.714}
{"data": "Block 2", "target": "Replicase polyprotein 1ab, nsp13 helicase (rep, Severe acute respiratory syndrome coronavirus 2, UniProt P0DTD1)", "mode": "inhibitor", "concentration": "20 µM"}
{"Structure (SMILES)": "N[C@H](C(=O)O)c1ccc(C(=O)O)c(C(=O)O)c1", "inhibition": "6.99%"}
{"Structure (SMILES)": "COc1ccc(-n2nc(CCC(=O)N(C)O)cc2-c2ccc(Cl)cc2)cc1", "inhibition": "-0.25%"}
{"Structure (SMILES)": "C[C@H](Nc1ncnc2[nH]cnc12)c1cc2ccc(F)cc2nc1-c1ccccn1", "inhibition": "-2.77% and -0.57%"}
{"Structure (SMILES)": "NCCc1ccccn1", "inhibition": "1.83%"}
{"Structure (SMILES)": "O=C(Nc1ccc(C(F)(F)F)cn1)N1CCN(c2ncccc2C(F)(F)F)CC1", "inhibition": "3.46%"}
{"Structure (SMILES)": "NC1=NCN([C@H]2C[C@H](O)[C@@H](CO)O2)C(=O)N1", "inhibition": "5.15%"}
{"Structure (SMILES)": "COc1cc(COc2cc(N)c(Cl)cc2C(=O)CCC2CCN(CCNS(C)(=O)=O)CC2)cc(OC)c1", "inhibition": "10.6%"}
{"Structure (SMILES)": "NCCNC(=O)c1ccc(Cl)cn1", "inhibition": "2.1%"}
{"Structure (SMILES)": "CC(C)n1cnc2c(NCCc3ccc(O)cc3)nc(-c3csc4ccccc34)nc21", "inhibition": "4.98%"}
{"Structure (SMILES)": "Cc1cccc(C)c1NC(=O)C1CCCCN1C (stereo not shown)", "inhibition": "1.19%"}
{"Structure (SMILES)": "O=C1c2ccccc2-c2n[nH]c3cccc1c23", "inhibition": "8.84%"}
{"Structure (SMILES)": "Oc1ccc(C(O)CNCCCCCCNCC(O)c2ccc(O)c(O)c2)cc1O (stereo not shown)", "inhibition": "7.13%"}
{"Structure (SMILES)": "COc1cc(-c2ncn(/C=C\\C(=O)OC(C)C)n2)cc(C(F)(F)F)c1", "inhibition": "6.31%"}
{"Structure (SMILES)": "C[C@@H]1COCCN1c1cc(C2([S@](C)(=N)=O)CC2)nc(-c2cc[nH]c3nccc2-3)n1", "inhibition": "1.22%"}
{"Structure (SMILES)": "CCOC(=O)[C@@]1(CCCCCCOc2ccc(Cl)cc2)CO1", "inhibition": "3.82%"}
{"Structure (SMILES)": "c1ccc([C@@H]2C[C@H]2NC2CCNCC2)cc1", "inhibition": "-0.03%"}
{"Structure (SMILES)": "CCN(CC)CCNC(=O)c1ccc(NC(C)=O)cc1", "inhibition": "3.52%"}
{"Structure (SMILES)": "C=C1C(=O)[C@]23[C@H](O)[C@H]1CC[C@H]2[C@@]12CO[C@]3(O)[C@@H](O)[C@@H]1C(C)(C)CC[C@@H]2O", "inhibition": "60.9%"}
{"Structure (SMILES)": "NCCC(Oc1ccc(C(F)(F)F)cc1)c1ccccc1 (stereo not shown)", "inhibition": "0.17%"}
{"Structure (SMILES)": "CNS(=O)(=O)CCc1ccc2[nH]cc(C3CCN(C)CC3)c2c1", "inhibition": "0.51%"}
{"Structure (SMILES)": "Cc1onc(-c2ccccc2)c1-c1ccc(S(N)(=O)=O)cc1", "inhibition": "3.6%"}
{"Structure (SMILES)": "CC1Cc2ccccc2N1NC(=O)c1ccc(Cl)c(S(N)(=O)=O)c1 (stereo not shown)", "inhibition": "2.69%"}
{"Structure (SMILES)": "c1ccc2c(Cc3c[nH]c4ccccc34)c[nH]c2c1", "inhibition": "1.92%"}
{"Structure (SMILES)": "COc1ccccc1OCC(O)CNC(C)C (stereo not shown)", "inhibition": "5.98%"}
{"Structure (SMILES)": "C[C@]12C=CC(=O)C=C1CC[C@@H]1[C@@H]2CC[C@]2(C)OC(=O)CC[C@@H]12", "inhibition": "-2.96%"}
{"data": "Block 3", "target": "Replicase polyprotein 1ab, main protease (rep, Severe acute respiratory syndrome coronavirus 2, UniProt P0DTD1)", "read-out": "enzyme activity", "mode": "inhibitor", "notes": "with DTT"}
{"Compound": "CC1=C(/C=C/C(C)=C/C=C/C(C)=C/C(=O)O)C(C)(C)CCC1", "IC50 [µM]": 17.1}
{"Compound": "COC(=O)CC[C@H](NC(=O)[C@H](CC(=O)OC)NC(=O)OCc1ccccc1)C(=O)N[C@H](C(=O)N[C@@H](CC(=O)OC)C(=O)CF)C(C)C", "IC50 [µM]": 0.01}
{"Compound": "Oc1ccc(C2CNCCc3c2cc(O)c(O)c3Cl)cc1 (stereo not shown)", "IC50 [µM]": "> 20"}
{"data": "Block 4", "target": "Interferon regulatory factor 5, full length, phosphomimetic (IRF5, Homo sapiens, UniProt Q13568-2, residues 1-514, K96S/S451D/S453D/S456D/S462D)", "technique": "protein-binding microarray", "form": "double-stranded DNA, one strand shown", "sample": "in vitro", "concentration": "250 nM", "notes": "60-bp whole probe", "added": "salmon DNA 0.4 mg/ml", "reference": "random background probes", "direction": "higher = stronger binding", "shared flanks, not repeated": "GCCTAGCAC … GTCTTGATTCGCTTGACGCTGCTG"}
{"Strand": "GACGGTATCGTTATCCTGACGTGCTAG", "log fluorescence [z-score]": 2.03}
{"Strand": "GACGGTTTCGGGACTGGGGTCGTGCTA", "log fluorescence [z-score]": 4.83}
{"Strand": "GACGATATCGGTCTCGGGACGTGCTAG", "log fluorescence [z-score]": 3.56}
{"Strand": "GGCGGACTGGGTATCGGGACGTGCTAG", "log fluorescence [z-score]": -0.032}
{"Strand": "TCATGTCTGGGCATTTTTACTGTGCTA", "log fluorescence [z-score]": -0.288}
{"Strand": "TCTAGCCTCCATTTTTACCCGTGCTAG", "log fluorescence [z-score]": -0.322}
{"Strand": "GACGGTCTCCTATTGCTGACGTGCTAG", "log fluorescence [z-score]": -0.215}
{"Strand": "TCACCACCCGCTCTGGCACTGTGCTAG", "log fluorescence [z-score]": -0.579}
{"data": "Block 5", "target": "Histone acetyltransferase KAT6A, winged helix 2, GST fusion (KAT6A, Homo sapiens, UniProt Q92794, residues 85-181)", "technique": "protein binding microarray", "form": "double-stranded DNA, one strand shown", "sample": "in vitro", "concentration": "not given", "notes": "8-mer, flanks averaged, mean of 2 arrays, mostly near background", "reference": "not given", "direction": "higher = stronger binding", "Target sequence (chain)": "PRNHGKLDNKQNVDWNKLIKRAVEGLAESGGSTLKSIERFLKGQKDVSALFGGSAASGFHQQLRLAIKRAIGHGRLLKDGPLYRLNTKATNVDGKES"}
{"Strand": "ACCTCCAG", "E-score": 0.072}
{"Strand": "AGAGGCGG", "E-score": 0.195}
{"Strand": "CTTGTCTC", "E-score": 0.127}
{"Strand": "CATAAACG", "E-score": -0.173}
{"Strand": "CAAAAACG", "E-score": 0.0824}
{"Strand": "AACGACCA", "E-score": -0.0281}
{"Strand": "CACCGCAC", "E-score": 0.11}
{"Strand": "CAGTGTAC", "E-score": -0.0753}
{"data": "Block 6", "cell line": "HEK-293T", "read-out": "pseudovirus infection", "organism": "VSV pseudotyped with SARS-CoV-2 spike", "concentration": "10 µM", "time": "16 h", "reference": "vehicle-treated"}
{"Compound": "NCCCC(N)(C(=O)O)C(F)F (stereo not shown)", "GFP-positive cells [%]": 78.7}
{"Compound": "O=C1C(O)=C([C@H]2CC[C@H](c3ccc(Cl)cc3)CC2)C(=O)c2ccccc21", "GFP-positive cells [%]": 7.2}
{"Compound": "COC(=O)N[C@H](C(=O)N[C@@H](Cc1ccccc1)[C@@H](O)CN(Cc1ccc(-c2ccccn2)cc1)NC(=O)[C@@H](NC(=O)OC)C(C)(C)C)C(C)(C)C", "GFP-positive cells [%]": 102}
{"note": "For quick reference, copied from above (block 5):"}
{"Strand": "AGAGGCGG", "E-score": 0.195}
{"Strand": "CTTGTCTC", "E-score": 0.127}
{"Strand": "CATAAACG", "E-score": -0.173}
{"Strand": "CAAAAACG", "E-score": 0.0824}
{"Strand": "AACGACCA", "E-score": -0.0281}
{"Strand": "CACCGCAC", "E-score": 0.11}
{"Strand": "CAGTGTAC", "E-score": -0.0753}
